Values quoted from earlier work as cited in several papers.
Ends that are not written are not given here.

For `CO[C@@H]1[C@@H]2OP(=O)(O)OC[C@H]2O[C@H]1n1c(Sc2ccc(Cl)cc2)nc2c(N)ncnc21`, “Km or Ki” read 895 µM (PDE4D; cyclic nucleotide hydrolysis, substrate or inhibitor, isothermal titration calorimetry).
`CCCCCC/C=C\CCCCCCCC=O` has an EC50 of 24.8 µM (Heliothis virescens OR6 with Orco; ion current, agonist, two-electrode voltage clamp; Xenopus oocytes; holding potential -80 mV).
For `O=C(OCc1ccccc1)[C@]1(c2ccccc2)N=C(c2ccccc2)N(Cc2ccccc2)[C@@H]1c1ccccc1`, the EC50 was 3.5 µM (NF-κB transcription; reporter gene, inhibitor, luciferase reporter).
For `O=C1c2cccc3c2[C@H](CCC3)CN1[C@@H]1CN2CCC1CC2`, the Vz/F was 799 L (healthy volunteers, plasma; oral, dose not given, netupitant-palonosetron alone, rifampicin study).
`COC(=O)[C@]1(c2ccccc2)N=C(c2ccccc2)N(Cc2ccccc2)[C@@H]1c1ccccc1` gave an EC50 of 7.5 µM (NF-κB transcription; reporter gene, inhibitor, luciferase reporter).
For `Nc1nc2c(nc(Sc3ccc(Cl)cc3)n2C2OC3COP(O)(=S)OC3C2O)c(=O)[nH]1` (stereo not shown), “Km or Ki” read 49.7 µM (PDE5; cyclic nucleotide hydrolysis, substrate or inhibitor, isothermal titration calorimetry).
`O=C(O)Cc1ccccc1Nc1c(Cl)cccc1Cl` gave an EC50 of about 210 µM (TRPA1; agonist; Xenopus oocytes expressing TRPA1).
`C[C@]12CC[C@@H]3c4ccc(O)cc4CC[C@H]3[C@@H]1CC1(CCCC1)C2=O` gave an EC50 of 0.166 µM (oestrogen receptor beta; binding, competition binding).
`CC(=O)c1cccc(N[C@H]2[C@H](N)[C@@](NC(=O)N(C)C)([C@H](C)O)[C@@](C)(O)[C@@]2(O)COC(=O)c2c(C)cccc2O)c1` gave a GI50 of under 0.01 µM (MCF7 (breast cancer); cell growth; NCI screen data).
`Cc1c(O)c(C23CC4CC(CC(C4)C2)C3)cc2c1CC[C@@H]1[C@@H]2CC[C@]2(C)C(=O)CC[C@@H]12` has an EC50 of over 10 µM (oestrogen receptor beta; binding, competition binding).
`COc1ccc(-c2cccc(C(=O)N(C)C)c2)cc1S(=O)(=O)Nc1cccc(NCCNC(=O)c2ccccc2N(C)C)c1` gave an EC50 of 0.028 µM (orexin receptor 2; luciferase reporter gene, agonist; CHO cells).
The EC50 of `CN1CCN(C2=Nc3ccccc3Oc3ccc(Cl)cc32)CC1` is reported as 20.7 µM (human SLACK (KCNT1); Tl+ flux, activator; HEK293 expressing human SLACK).
With `C[C@@]12CC=C3c4ccc(O)cc4CC[C@@H]3[C@H]1CC[C@H]2O` the EC50 was 0.00814 µM (oestrogen receptor beta; binding, competition binding).
`CC1=C(C(=O)OC2CCCCC2)C(c2ccc([N+](=O)[O-])cc2)C2=C(CC(C)(C)CC2=O)N1` (stereo not shown) gave an EC50 of 2.3 µM (Notch; Notch trafficking inhibition).
With `C[C@]12CC(O)[C@@H]3c4ccc(O)cc4CC[C@H]3[C@@H]1CCC2=O` (stereo partly shown) the EC50 was 1.2 µM (oestrogen receptor beta; binding, competition binding).
For `GSSFLSPEHQRVQQRKESKKPPAKLQPR (ghrelin; ends and bridges not checked; sequence looked up)`, the EC50 was 0.0016 µM (GHSR1a; receptor activation, agonist; peptide).
